Measured values of several laboratories.
Compare with care: the assays were run in different laboratories.
CDPK1: Calcium-dependent protein kinase 1 (CDPK1, Plasmodium falciparum, UniProt P62344)
Sequence of UniProt P62344 (whole entry, looked up): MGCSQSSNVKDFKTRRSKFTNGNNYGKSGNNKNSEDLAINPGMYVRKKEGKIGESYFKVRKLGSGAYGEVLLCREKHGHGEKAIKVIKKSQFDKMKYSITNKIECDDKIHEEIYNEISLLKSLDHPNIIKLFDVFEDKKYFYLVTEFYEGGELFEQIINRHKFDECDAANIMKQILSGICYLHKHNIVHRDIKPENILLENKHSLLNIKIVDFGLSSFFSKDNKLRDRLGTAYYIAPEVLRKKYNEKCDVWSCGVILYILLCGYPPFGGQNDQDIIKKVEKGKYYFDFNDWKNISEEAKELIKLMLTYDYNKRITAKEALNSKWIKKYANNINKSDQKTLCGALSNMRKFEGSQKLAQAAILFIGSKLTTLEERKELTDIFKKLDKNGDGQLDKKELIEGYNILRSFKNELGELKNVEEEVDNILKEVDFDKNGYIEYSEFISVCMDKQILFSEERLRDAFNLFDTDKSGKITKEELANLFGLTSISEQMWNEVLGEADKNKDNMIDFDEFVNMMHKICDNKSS
Sequence of UniProt Q9H2K8 (whole entry, looked up): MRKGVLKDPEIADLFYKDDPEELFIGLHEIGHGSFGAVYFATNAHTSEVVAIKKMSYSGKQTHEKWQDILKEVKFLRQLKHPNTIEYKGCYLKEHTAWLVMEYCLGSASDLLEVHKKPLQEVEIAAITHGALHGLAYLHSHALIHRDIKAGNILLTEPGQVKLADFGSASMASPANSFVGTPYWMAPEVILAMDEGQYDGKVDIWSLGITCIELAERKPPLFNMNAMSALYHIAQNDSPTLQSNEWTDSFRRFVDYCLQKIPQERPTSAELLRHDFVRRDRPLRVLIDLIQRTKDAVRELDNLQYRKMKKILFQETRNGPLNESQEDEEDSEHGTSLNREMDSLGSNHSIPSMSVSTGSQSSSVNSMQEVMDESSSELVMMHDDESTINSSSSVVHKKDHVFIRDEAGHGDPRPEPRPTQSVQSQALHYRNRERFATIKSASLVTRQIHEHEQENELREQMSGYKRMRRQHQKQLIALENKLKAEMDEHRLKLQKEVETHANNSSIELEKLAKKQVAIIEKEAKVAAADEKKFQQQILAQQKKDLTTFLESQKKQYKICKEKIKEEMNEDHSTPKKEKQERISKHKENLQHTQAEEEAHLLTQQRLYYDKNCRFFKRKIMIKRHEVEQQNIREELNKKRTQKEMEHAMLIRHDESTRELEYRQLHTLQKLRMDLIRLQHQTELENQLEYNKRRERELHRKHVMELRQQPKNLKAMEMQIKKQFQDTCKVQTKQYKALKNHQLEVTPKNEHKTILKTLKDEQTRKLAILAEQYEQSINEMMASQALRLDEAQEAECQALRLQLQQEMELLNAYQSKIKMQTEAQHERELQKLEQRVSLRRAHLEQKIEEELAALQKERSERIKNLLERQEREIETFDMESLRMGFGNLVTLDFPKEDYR
Sequence of UniProt P21860 (whole entry, looked up): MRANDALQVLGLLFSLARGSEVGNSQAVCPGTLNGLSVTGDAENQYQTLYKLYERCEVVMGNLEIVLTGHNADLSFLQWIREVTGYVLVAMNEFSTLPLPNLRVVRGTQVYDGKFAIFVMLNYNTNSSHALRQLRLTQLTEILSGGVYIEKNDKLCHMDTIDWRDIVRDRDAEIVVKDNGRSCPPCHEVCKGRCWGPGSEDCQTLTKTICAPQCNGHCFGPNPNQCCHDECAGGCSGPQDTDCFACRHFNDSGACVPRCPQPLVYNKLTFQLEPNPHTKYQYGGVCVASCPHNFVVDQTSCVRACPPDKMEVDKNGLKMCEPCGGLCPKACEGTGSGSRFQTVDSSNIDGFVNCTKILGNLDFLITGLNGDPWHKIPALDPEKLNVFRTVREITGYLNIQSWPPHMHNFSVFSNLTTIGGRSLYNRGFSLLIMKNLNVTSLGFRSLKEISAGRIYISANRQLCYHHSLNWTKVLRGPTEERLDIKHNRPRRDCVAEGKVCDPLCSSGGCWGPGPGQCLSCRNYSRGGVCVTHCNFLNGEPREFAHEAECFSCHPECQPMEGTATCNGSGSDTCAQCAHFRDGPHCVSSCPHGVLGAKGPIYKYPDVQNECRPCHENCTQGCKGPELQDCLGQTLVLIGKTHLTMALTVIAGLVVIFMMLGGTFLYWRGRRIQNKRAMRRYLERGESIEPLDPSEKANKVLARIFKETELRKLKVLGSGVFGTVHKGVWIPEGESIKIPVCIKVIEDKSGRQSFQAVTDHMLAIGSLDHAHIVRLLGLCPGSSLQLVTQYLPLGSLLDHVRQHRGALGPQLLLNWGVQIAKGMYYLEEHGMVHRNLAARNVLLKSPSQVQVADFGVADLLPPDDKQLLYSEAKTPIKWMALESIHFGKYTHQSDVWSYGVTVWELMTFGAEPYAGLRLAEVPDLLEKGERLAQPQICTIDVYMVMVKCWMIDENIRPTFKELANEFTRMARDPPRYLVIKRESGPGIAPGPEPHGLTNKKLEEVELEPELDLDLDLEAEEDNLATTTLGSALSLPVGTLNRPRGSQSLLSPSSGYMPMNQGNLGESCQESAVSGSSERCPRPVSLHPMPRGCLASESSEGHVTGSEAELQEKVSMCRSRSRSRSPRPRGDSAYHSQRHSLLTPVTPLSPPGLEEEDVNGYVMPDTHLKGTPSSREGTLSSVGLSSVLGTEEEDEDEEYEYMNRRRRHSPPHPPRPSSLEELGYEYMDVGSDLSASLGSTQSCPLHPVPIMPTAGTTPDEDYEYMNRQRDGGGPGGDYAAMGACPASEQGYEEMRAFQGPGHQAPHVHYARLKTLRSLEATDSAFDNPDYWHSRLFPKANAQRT
Sequence of UniProt Q6DT37 (whole entry, looked up): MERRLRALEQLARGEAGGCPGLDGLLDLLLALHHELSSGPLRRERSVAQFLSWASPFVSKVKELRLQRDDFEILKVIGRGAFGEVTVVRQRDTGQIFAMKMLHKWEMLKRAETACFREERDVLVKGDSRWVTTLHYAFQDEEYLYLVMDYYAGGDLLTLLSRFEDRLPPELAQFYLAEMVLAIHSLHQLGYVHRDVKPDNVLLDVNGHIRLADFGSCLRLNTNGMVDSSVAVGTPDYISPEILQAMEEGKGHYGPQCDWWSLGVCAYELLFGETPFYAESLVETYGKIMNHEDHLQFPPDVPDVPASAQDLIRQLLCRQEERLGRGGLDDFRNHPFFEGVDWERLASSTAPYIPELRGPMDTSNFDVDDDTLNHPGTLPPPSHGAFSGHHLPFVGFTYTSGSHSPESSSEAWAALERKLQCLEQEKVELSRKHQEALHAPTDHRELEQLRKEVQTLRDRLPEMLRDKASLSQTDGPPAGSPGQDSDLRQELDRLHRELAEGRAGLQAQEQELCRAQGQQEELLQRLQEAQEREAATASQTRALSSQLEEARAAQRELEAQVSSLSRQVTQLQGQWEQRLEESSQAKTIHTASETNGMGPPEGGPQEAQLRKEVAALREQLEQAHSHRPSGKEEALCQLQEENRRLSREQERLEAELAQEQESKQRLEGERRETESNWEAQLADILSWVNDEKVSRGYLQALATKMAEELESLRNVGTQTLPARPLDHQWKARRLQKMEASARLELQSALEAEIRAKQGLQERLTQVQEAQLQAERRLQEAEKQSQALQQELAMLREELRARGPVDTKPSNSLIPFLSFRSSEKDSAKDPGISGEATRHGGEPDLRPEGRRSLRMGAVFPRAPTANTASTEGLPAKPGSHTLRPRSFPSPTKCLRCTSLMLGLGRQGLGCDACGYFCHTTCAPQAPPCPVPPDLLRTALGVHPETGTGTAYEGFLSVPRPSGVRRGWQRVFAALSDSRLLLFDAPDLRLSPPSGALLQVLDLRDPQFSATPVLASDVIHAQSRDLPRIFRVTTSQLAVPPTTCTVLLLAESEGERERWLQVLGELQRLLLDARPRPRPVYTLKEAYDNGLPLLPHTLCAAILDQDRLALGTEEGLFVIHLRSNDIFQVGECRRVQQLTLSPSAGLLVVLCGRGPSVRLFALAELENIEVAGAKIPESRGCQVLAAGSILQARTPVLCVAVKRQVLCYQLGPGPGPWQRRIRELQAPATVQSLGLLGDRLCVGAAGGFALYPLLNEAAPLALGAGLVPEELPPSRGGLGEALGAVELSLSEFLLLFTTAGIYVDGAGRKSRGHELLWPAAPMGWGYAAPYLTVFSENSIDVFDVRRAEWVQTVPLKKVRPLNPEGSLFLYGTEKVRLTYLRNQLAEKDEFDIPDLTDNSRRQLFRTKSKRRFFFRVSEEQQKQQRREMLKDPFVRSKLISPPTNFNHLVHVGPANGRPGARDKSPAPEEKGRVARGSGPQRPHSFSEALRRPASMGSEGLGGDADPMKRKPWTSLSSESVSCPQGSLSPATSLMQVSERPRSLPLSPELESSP
Sequence of UniProt P23443 (whole entry, looked up): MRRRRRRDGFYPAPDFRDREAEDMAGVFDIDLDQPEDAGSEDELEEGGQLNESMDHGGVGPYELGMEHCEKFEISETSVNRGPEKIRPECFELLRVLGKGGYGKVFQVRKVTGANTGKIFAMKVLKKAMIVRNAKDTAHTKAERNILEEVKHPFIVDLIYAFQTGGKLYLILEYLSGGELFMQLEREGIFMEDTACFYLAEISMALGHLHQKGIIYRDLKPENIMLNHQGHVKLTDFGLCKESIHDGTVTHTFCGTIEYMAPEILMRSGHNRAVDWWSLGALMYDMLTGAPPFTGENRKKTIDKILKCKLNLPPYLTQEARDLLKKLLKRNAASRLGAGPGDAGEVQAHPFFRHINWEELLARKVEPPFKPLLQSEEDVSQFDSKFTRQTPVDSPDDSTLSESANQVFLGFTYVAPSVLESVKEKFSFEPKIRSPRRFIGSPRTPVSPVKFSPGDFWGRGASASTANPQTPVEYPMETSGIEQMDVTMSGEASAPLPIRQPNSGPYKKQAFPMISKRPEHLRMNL

With Cc1cccc(N(O)N=Nc2ccc(S(=O)(=O)Nc3nccs3)cc2)c1 the inhibition was 39% (DPPH scavenging, absorbance; 300 µg/mL).
The remaining signal of Nc1ncnc2occ(-c3ccc(NC(=O)Nc4cc(C(F)(F)F)ccc4F)cc3)c12 is reported as 18% (ACVR2B (Homo sapiens, UniProt Q13705); cell-free assay; 20 µM).
CN(C)c1nccc(-c2cnc3ncccn23)n1 gave a remaining binding of 100% (ERBB3 (Homo sapiens, UniProt P21860); binding; 1 µM).
For Cc1cc(NS(=O)(=O)c2ccc(N=NN(C)O)cc2)no1, the inhibition was 41.4% (DPPH scavenging, absorbance; 300 µg/mL).
CNc1ncc2c(/C=C/C(=O)N3CCC(OC)CC3)nn(Cc3cccc(C(F)(F)F)c3)c2n1 has a remaining activity of 97% (MKNK1 (Homo sapiens, UniProt Q9BUB5); enzyme activity, inhibitor, radiometric; 1 µM).
For Cc1cc(S(=O)(=O)N[C@H]2CC[C@H](CN3CCN(c4ccc(C5CCC(=O)NC5=O)cc4F)CC3)CC2)ccc1Nc1ncc(C(F)(F)F)c(N2CCC[C@](C)(O)C2)n1 (stereo partly drawn), the remaining binding was 75% (BMP2K (Homo sapiens, UniProt Q9NSY1); binding, competition with immobilised ligand; 1 µM).
The remaining binding of c1cnn2ncc(-c3ccnc(N4CCC45COC5)n3)c2c1 is reported as 35% (CDPK1; binding; 1 µM).
FC(F)(F)Oc1cccc(-c2cnc3ccc(-c4ccncc4)nn23)c1 has a remaining binding of 93% (RPS6KB1 (Homo sapiens, UniProt P23443); binding, competition with immobilised ligand; 5 µM).
For CCCCC(=O)Nc1ccc(-c2ccc3ncn(CCC)c(=O)c3c2)cn1, the remaining binding was 100% (EPHB1 (Homo sapiens, UniProt P54762); binding, competition with immobilised ligand; 0.5 µM).
With Cc1cc([C@@H](C)Nc2ccccc2C(=O)O)c2nc(N3CCC(F)(F)CC3)c(C#N)c(=O)n2c1 the remaining binding was 64% (CDK16 (Homo sapiens, UniProt Q00536); binding, competition with immobilised ligand; 10 µM).
For COc1ccc2oc(-c3ccc4nc(N)oc4c3)c/c(=N\c3ccccc3NC(=O)CCN)c2c1, the remaining binding was 96% (ARAF (Homo sapiens, UniProt P10398); binding; 1 µM).
COc1cnc(Nc2cccc(S(N)(=O)=O)c2)nc1N1CCN(c2ccccc2)C(=O)C1 has a remaining binding of 100% (CDPK1; binding, competition with immobilised ligand; 1 µM).
C=CC(=O)N1CCC(COCC(=O)N2CCN(c3nc(-c4cnc(N)nc4C(F)F)nc(N4CCOC[C@@H]4C)n3)CC2)CC1 gave a remaining binding of 1.2% (PIK3CA (Homo sapiens, UniProt P42336, E542K); binding, competition with immobilised ligand; 1 µM).
COc1cccc(-c2n[nH]c(SCc3ccccn3)n2)c1OC gave a concentration of 2.17 µg/mL (male Sprague-Dawley rat, plasma; oral, 30 mg/kg, 4 h, single dose).
N[C@H]1CCN(c2nccc(-c3cnn4ncccc34)n2)C1 has a remaining binding of 100% (CDC42BPG (Homo sapiens, UniProt Q6DT37); binding; 1 µM).
COc1cc(-c2cncc3c2CN(C)Cc2cc(N4CCNCC4)ccc2-3)cc(OC)c1OC gave a remaining activity of 97% (TAOK3 (Homo sapiens, UniProt Q9H2K8); enzyme activity, inhibitor; 1 µM).
For C1=C/COCc2cc(ccc2OCCN2CCCC2)Nc2nccc(n2)-c2cccc(c2)COC/1, the remaining binding was 100% (AKT3 (Homo sapiens, UniProt Q9Y243); binding; 0.1 µM).
For CN(C)c1nccc(-c2cnn3ncccc23)n1, the remaining binding was 100% (CDK19 (Homo sapiens, UniProt Q9BWU1); binding; 1 µM).

Repeated from above:
With Cc1cc([C@@H](C)Nc2ccccc2C(=O)O)c2nc(N3CCC(F)(F)CC3)c(C#N)c(=O)n2c1 the remaining binding was 64% (CDK16 (Homo sapiens, UniProt Q00536); binding, competition with immobilised ligand; 10 µM).
